# Results from different studies.
# Each numbered part is a random draw from the data of one study; scales do not carry over between parts. “And” joins repeats or separate records; there may be more than shown. Changes are numbered by the printed parent chain.
# Sequence of UniProt Q9P286 (whole entry, looked up): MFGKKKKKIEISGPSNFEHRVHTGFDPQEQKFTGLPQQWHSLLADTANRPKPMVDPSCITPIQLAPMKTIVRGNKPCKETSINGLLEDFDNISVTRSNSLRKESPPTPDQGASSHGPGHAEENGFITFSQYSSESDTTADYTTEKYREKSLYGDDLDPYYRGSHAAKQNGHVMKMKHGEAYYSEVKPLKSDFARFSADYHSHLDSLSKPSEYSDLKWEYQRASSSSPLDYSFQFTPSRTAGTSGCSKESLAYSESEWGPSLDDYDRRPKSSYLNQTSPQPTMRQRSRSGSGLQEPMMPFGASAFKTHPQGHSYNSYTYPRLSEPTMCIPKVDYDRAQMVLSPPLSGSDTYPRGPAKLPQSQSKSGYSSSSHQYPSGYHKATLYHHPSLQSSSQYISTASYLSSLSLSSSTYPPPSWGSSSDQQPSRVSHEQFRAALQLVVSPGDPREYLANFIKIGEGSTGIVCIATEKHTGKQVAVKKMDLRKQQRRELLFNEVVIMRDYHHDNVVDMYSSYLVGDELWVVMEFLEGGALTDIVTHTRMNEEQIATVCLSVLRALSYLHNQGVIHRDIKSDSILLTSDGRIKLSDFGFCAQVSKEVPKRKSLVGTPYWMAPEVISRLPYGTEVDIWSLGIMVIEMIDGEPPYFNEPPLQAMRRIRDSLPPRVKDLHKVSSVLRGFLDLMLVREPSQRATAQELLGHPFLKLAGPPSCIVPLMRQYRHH
# Sequence of UniProt Q8NFD2 (whole entry, looked up): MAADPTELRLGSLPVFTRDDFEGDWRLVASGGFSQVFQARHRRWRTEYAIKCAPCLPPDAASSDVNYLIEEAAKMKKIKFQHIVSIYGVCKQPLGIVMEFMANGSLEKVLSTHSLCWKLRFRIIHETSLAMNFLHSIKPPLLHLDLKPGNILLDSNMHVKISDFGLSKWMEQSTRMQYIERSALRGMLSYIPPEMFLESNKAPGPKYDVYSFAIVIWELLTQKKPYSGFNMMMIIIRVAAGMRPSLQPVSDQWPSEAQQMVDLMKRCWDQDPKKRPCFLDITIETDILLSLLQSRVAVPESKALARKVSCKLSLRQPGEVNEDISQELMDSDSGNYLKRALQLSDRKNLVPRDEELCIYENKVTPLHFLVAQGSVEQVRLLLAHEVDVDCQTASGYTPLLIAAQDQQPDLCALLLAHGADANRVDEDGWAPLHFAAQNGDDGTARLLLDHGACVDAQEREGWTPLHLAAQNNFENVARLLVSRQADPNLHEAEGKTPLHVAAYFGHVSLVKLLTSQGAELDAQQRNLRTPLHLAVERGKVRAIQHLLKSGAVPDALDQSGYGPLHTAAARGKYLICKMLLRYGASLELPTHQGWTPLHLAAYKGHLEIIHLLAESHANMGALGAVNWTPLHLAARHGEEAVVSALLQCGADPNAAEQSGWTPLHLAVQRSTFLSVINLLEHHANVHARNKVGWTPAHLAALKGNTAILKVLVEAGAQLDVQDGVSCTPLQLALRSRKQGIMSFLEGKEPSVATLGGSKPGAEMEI
# Sequence of UniProt P31152 (whole entry, looked up): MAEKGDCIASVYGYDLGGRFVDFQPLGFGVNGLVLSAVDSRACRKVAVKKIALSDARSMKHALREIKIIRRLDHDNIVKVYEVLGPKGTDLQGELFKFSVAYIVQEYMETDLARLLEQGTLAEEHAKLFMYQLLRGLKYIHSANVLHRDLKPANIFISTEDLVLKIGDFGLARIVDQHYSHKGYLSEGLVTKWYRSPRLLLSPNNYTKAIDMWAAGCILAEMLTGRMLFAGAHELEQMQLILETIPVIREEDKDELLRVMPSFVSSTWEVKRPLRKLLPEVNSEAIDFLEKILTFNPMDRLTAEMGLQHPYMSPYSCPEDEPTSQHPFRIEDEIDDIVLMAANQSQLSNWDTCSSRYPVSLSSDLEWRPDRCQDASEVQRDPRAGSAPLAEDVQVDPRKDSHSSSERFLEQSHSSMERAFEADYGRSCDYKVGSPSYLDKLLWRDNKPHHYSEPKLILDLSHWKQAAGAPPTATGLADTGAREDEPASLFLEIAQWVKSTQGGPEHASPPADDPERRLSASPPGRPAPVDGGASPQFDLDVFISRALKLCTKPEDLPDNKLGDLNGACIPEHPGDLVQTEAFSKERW
# Sequence of UniProt O00141 (whole entry, looked up): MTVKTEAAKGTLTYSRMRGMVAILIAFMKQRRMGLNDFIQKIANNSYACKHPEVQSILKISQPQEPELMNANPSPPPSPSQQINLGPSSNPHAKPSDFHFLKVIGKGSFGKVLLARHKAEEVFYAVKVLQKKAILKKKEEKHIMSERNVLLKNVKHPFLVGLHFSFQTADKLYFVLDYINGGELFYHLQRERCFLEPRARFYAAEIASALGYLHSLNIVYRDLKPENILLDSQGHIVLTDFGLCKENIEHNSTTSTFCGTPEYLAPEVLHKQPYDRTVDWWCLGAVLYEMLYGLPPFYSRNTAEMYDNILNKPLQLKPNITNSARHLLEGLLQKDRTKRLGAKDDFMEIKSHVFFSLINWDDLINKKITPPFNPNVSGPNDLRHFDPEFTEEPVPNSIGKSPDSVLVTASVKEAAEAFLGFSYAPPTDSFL
# Sequence of UniProt Q13557 (whole entry, looked up): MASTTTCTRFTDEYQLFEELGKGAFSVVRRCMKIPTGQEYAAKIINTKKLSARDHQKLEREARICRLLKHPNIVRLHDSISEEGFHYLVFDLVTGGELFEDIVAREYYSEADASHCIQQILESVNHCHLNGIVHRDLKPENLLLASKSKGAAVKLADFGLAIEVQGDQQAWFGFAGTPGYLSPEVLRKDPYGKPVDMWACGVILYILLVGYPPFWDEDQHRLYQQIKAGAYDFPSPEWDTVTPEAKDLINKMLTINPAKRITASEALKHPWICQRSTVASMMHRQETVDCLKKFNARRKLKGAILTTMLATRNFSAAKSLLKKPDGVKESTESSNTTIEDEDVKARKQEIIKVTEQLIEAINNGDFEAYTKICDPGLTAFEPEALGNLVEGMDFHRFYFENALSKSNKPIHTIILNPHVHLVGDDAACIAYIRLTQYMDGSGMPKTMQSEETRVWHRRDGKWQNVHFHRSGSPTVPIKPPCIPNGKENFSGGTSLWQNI
# Sequence of UniProt P08069 (whole entry, looked up): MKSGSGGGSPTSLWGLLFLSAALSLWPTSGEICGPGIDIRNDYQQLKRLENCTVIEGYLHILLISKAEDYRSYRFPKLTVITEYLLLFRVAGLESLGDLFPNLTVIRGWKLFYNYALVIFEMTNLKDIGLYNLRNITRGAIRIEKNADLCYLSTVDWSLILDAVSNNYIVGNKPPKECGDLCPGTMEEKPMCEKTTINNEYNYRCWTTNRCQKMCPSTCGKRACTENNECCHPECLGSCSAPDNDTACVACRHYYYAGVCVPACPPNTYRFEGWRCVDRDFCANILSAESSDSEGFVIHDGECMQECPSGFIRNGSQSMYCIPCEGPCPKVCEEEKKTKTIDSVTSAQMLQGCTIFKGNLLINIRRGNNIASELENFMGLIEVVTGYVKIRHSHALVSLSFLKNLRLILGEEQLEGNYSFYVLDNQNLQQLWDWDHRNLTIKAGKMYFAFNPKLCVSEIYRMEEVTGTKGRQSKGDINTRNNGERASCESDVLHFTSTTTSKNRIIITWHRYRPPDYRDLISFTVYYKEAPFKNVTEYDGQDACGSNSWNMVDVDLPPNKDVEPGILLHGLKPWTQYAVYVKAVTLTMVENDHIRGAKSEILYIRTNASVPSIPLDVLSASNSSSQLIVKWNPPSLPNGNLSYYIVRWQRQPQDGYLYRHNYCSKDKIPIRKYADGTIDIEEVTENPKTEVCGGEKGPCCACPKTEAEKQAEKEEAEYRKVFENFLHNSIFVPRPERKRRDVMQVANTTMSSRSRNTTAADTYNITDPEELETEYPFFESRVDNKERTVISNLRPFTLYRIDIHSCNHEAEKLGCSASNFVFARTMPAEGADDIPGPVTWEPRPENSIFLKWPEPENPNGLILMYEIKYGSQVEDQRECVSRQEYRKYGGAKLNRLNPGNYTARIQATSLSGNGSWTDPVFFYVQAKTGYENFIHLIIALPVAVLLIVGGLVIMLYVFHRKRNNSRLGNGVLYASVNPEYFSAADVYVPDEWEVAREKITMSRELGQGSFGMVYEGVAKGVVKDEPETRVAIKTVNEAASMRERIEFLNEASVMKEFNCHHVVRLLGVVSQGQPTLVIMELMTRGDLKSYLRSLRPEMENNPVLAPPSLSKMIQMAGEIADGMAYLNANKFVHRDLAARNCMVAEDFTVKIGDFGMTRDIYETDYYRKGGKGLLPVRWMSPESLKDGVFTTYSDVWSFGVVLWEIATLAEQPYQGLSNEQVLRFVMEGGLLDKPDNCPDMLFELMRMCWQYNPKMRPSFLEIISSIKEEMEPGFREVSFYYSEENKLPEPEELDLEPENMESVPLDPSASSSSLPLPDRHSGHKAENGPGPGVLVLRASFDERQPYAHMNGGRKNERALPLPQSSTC
# Sequence of UniProt Q6P2M8 (whole entry, looked up): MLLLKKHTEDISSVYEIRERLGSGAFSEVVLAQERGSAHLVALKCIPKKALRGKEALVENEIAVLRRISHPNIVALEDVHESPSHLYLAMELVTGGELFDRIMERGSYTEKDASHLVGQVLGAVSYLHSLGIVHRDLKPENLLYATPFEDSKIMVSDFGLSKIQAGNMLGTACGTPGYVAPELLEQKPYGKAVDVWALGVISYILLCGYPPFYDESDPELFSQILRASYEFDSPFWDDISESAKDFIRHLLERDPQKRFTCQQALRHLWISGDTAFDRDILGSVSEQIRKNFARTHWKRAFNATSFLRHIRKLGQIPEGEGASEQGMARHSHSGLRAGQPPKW
# Sequence of UniProt P11802 (whole entry, looked up): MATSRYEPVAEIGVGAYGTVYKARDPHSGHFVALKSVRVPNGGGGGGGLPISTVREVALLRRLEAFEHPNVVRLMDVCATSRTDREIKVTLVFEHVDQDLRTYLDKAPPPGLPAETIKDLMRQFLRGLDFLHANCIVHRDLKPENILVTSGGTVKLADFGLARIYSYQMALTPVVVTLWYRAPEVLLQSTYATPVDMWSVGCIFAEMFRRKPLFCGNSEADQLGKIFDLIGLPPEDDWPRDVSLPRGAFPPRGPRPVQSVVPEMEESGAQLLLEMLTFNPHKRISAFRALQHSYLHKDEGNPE

# Series 1 — effect on: cell-free assay; technique: competition with immobilised ligand; tested at: 1 µM
# Structure (SMILES): CNC(=O)Nc1ccc2c(c1)[C@@]1(CC2)OC(=O)N(CC(=O)N(Cc2ccc(F)cc2)[C@@H](C)C(F)(F)F)C1=O
target,remaining binding
"CDK11B (Homo sapiens, UniProt P21127)",97%
"ANKK1 (Homo sapiens, UniProt Q8NFD2)",61%
"PAK5 (Homo sapiens, UniProt Q9P286)",100%
"BUB1 (Homo sapiens, UniProt O43683)",77%
"Tyrosine-protein kinase ABL1, non-phosphorylated (ABL1, Homo sapiens, UniProt P00519, T315I)",86%
"CSNK1G2 (Homo sapiens, UniProt P78368)",100%
"PKMYT1 (Homo sapiens, UniProt Q99640)",92%
"PIP5K1A (Homo sapiens, UniProt Q99755)",89%
"EPHB6 (Homo sapiens, UniProt O15197)",0%
"LRRK2 (Homo sapiens, UniProt Q5S007, G2019S)",100%
"Tyrosine-protein kinase ABL1, non-phosphorylated (ABL1, Homo sapiens, UniProt P00519, F317I)",78%
"SYK (Homo sapiens, UniProt P43405)",82%
"IGF1R (Homo sapiens, UniProt P08069)",100%
"CSNK1G1 (Homo sapiens, UniProt Q9HCP0)",78%
"MAPK4 (Homo sapiens, UniProt P31152)",98%
"MATK (Homo sapiens, UniProt P42679)",100%
"FLT3 (Homo sapiens, UniProt P36888, R834Q)",96%
"SGK1 (Homo sapiens, UniProt O00141)",54%
"STK24 (Homo sapiens, UniProt Q9Y6E0)",100%
"PIK3CB (Homo sapiens, UniProt P42338)",97%
"SRPK3 (Homo sapiens, UniProt Q9UPE1)",100%
"PNCK (Homo sapiens, UniProt Q6P2M8)",90%

# Series 2 — species: mouse; matrix: microsomes or S9; tested at: 2 µM; time: 0.5 h
SMILES,remaining compound
OCC(O)Cn1c(-c2ccc(F)cc2)nc2ccccc21 (stereo not shown),76.9%
Cc1cc(C)cc(C(O)CN(C)Cc2cc(Cl)cn2C)c1 (stereo not shown),2.26%
CC(c1cccc(O)c1)N(C)S(=O)(=O)c1ccc2cn[nH]c2c1 (stereo not shown),0.459%

# Series 3 — organism: Leishmania donovani
# SMILES: c1ccc(Oc2ccc(Nc3c4c(nc5ccccc35)CCC4)cc2)cc1
assay,test system,conditions,inhibition
"parasite growth, high-content imaging","MHOM/IN/80/DD8, amastigotes in THP-1 cells",40 µM,100%
parasite killing,"DD8, promastigotes","1.66 µM, 48 h",65% and 70%
"parasite growth, high-content imaging","MHOM/IN/80/DD8, amastigotes in THP-1 cells",8 µM,100%

# Series 4 — Structure (SMILES): CC(=O)c1ccc(N2CCOCC2)cc1O; effect on: enzyme activity; mode: inhibitor; tested at: 0.5 µM; relative to: control
target,remaining activity [%]
"PRKCA (Homo sapiens, UniProt P17252)",73.4
"PRKACA (Homo sapiens, UniProt P17612)",102
"Cyclin-dependent kinase 4, with cyclin D1 (CDK4, Homo sapiens, UniProt P11802)",94.4
"CAMK2D (Homo sapiens, UniProt Q13557)",100
"NEK2 (Homo sapiens, UniProt P51955)",81.3

# Series 5 — target: ATF7, bZIP domain (human); technique: DHFR protein complementation; matrix: yeast; relative to: wild-type JUN-FOS pair; direction: higher = stronger binding
# Notes: single substitutions, most at no-binding floor
# Parent: JUN, bZIP domain (human); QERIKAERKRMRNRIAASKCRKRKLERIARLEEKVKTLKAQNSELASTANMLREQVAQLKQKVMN; partner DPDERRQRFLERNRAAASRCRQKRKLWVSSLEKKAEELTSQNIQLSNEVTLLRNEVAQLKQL
Substitution,binding fitness [natural log]
L38Q,-1.47
E54P,-1.53
E54L,-1.16
L52F,-1.46
E32W,-1.13
V56E,-1.45
V56L,-1.01
V35S,-1.46

# Series 6 — technique: aptamer microarray, sandwich; form: DNA with 2'F-ANA; matrix: in vitro; tested at: 200 nM; with: Cy3 exosite-II aptamer, 400 nM; direction: higher = stronger binding; sequence: GGTTGGTGTGGTTGG
# Target: Prothrombin, mature alpha-thrombin (F2, Homo sapiens, UniProt P00734)
# Notes: whole 15-mer aptamer, many near background
Modification,mean fluorescence intensity [a.u.]
2'F-ANA at 5 6 8 12 14,51.1
2'F-ANA at 3 4 6 7 8 10 11 12 13 15,235
2'F-ANA at 2 3 7 9 14,428
2'F-ANA at 4 9 10 12 15,106
2'F-ANA at 1 6 7 9 10 11 12 13 14,49
2'F-ANA at 2 4 5 7 9 10 11 14 15,46.5
2'F-ANA at 1 2 5 6 7 9 12 14 15,52.1
2'F-ANA at 1 4 9,127

# Repeated from above (series 5):
Substitution,binding fitness [natural log]
E54L,-1.16
L52F,-1.46
E32W,-1.13
V56E,-1.45
V56L,-1.01
V35S,-1.46
